Measurements pooled from the literature.
Parts stem from different laboratories: compare values within a part only. Positions count from the first letter of the parent shown.

Series 1 — technique: RNA Bind-n-Seq; molecule type: RNA; sample: in vitro; concentration: 365 nM; baseline: no-protein control; reading: higher = stronger binding
Target: RNA binding protein fox-1 homolog 2, RRM domain, GST-SBP tag (RBFOX2, Homo sapiens, UniProt O43251-10, residues 100-194)
Setting: natural RNA segment, single round, ends assumed
Constant ends, left off below: GGGAGUUCUACAGUCCGACGAUC … UGGAAUUCUCGGGUGCCAA
Construct (chain): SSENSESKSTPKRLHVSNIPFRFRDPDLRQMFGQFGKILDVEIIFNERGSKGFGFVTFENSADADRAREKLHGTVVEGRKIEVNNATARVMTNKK
Oligonucleotide	RBNS enrichment (R)
AAGAAGCCUUAAAUGAGAGCUAAUCCAAUCUAGAGAGCGAUGGUGUCAGCAUUUCGGUCUGCAUAUCUGUGUGUCCGUAUCUGCGUUUGUGUGCGUGUACGUGUGCCCCU	0.74
AACUGAAAUCUGAAGCUUUUUAUCGCUUAUUUUUCCUCGCCCUGUCUCCUCCCUUCCACCUUUCUCCUUGCAUUGUGAUGAUCUAGUAGGCACGUCUGUCAACAGGACAC	1.62
CCACCCCCACCACUCUACUGAAAGAAGAGAGCAACAGAGGUGAGGACCUGCUCUUCUCUAGUUCCAGAUCCUGAUGCUAAUUAAUCUCCUCCAGGACACCACAGUCCUUG	0.508
AGCCAAGUGAGGUCCCUGGAGGUUCAGGGCUUGGUGACGAGGUAGGCCGUGAUCACAUAUUCUACAGUCCAAAAGAGGGCCCGGAGCUCAGCAAUUACUCACGCCGUCAC	0.44
UUGUAAAUGCUAAUUUUUUAGGACUCUAUUAGUCAGCAUAAAAUCUAUAUGAAGAAGAUGGACAUUUUAUCCUCUUAUGGUGAUGUUUUUUGGAAAUUUCCAUCAUCCUC	3.05
UCUCUAUUCUGUUAAUUUAAUUUUAAAUGCUUUAUCCAUUUGUGCAAAGGUAAACACAGAUUGUAUCUUUUUUAAUGGUACGGCAUAAAAAAAUAACCCUAAAGUGAAGU	0.812
GCCUACUGGGGGGUCCCCAAACUCAGUCCUGGUACCACCUCAACUGUGACAAUCAGCAAAGCCUCGCCUGGGCCCUCAUCUGGGAUGAUGGGGGGAACGGACAGAUAUUC	0.318
AUAUGCAGCAAGCAAGGGUGACCUCCAGUGGCCCACUCAAGUCCAUGAGCCAUUAUCUAGGAUACUUUCUCUCUCUUUCAUGCAGUUCAAAGCCCAGGUAUCUCUCAGAU	0.296

Series 2 — technique: competition protein-binding microarray; molecule type: double-stranded DNA, one strand shown; sample: in vitro; concentration: 2 µM; together with: Cbf1 competitor, 0.05 µM; reading: higher = stronger binding; constant ends, left off below: … GTCTTGATTCGCTTGACGCTGCTG
Target: Phosphate system positive regulatory protein PHO4, full length, GST-tagged (PHO4, Saccharomyces cerevisiae, UniProt P07270, residues 1-312)
Setting: whole 60-bp probe, lowest competitor level
Residues (chain): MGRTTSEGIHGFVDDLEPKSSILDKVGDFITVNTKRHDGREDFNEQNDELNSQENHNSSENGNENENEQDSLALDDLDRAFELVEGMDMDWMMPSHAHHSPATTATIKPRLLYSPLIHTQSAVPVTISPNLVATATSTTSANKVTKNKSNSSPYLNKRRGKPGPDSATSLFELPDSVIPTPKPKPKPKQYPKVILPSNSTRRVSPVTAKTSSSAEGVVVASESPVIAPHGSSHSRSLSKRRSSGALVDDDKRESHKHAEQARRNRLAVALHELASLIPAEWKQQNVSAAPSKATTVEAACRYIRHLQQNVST
Oligonucleotide	fluorescence intensity [a.u.]
GTAGCTACATTGCCGTGCGTGGCAACAACCTAATTA	7430
AAATTACTAAGTTGAGCAGTGGGTGACGCCGTATGA	3930
GCCCTCGGCGGGGGCCACGTGGCTCTCAGGCGCCTG	16300
TATCTAGGATGCTGCACCGTGGCAACATTCCCCTCG	7070
AAAGCGGTAATTTGACAGGTGGGTGCAGATATCTAT	6160
AACCTACATTCTATTCTCGTGATGGTTCTCGTAATT	4970
TCAATGATCCCCTTGGGCGTGCAAAGCAAAAAGAAT	8100
CTAACGAAGGTTTGCTGAGTGGGTGACAAGCCAAGT	3760
TAAAAACGATTTCACCACGTGACTCGTATTAGAAAT	15300
GGACCAGCCCGGACCCATGTGCTTCCAAGTGGCCAG	11400
CGGGGTTAAGTTTGCACCGTGGGTGGCTTGCAGCAG	7600
CTAACGAAGGTTTGCTTGGTGGGTGACAAGCCAAGT	3470
TCACCAGCCATTTTTGACATGACAGCTGGACCATTA	3780
TATTGGTTTTAGAAACACGTTTCGAATCTTCAGTAT	12800
CGATGTATTTACCATCACCTGGTGATACAGCGACGG	4550
CTCGAGGATTGCCTACGCGTGGGACTGATCCACCAA	8000
AGCGCCCATAAAAAGCACGATATTCTTGTACACTAG	6300
TAGCTAAAAACGAGTCACGTGATGGATATTCGAAAG	14500
GTCTTGTCTCATTGTCACTCAACTTTCCCCACTTCA	3950

Series 3 — technique: universal PBM; molecule type: double-stranded DNA, one strand shown; sample: in vitro; concentration: not given; reading: higher = stronger binding
Target: Sal-like protein 4, full length isoform B (SALL4, Homo sapiens, UniProt Q9UJQ4-2, residues 1-616)
Setting: 8-mer, flanks averaged, mean of replicates
Construct (chain): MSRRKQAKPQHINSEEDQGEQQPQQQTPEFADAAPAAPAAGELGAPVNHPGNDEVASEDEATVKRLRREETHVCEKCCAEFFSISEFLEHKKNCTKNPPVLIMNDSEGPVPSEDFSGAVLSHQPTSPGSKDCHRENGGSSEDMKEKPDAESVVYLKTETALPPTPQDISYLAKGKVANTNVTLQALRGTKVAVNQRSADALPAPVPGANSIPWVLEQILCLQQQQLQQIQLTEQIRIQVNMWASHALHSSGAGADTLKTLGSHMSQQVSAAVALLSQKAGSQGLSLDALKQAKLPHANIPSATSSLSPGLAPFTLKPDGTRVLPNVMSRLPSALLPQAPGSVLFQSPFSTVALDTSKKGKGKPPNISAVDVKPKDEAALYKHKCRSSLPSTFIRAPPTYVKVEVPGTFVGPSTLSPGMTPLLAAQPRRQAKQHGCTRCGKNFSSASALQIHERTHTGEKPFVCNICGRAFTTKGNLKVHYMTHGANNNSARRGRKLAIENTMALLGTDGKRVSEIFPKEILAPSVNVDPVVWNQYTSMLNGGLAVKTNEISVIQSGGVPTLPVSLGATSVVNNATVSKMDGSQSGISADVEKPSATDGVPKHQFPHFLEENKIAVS
Oligonucleotide	E-score
ATCTCCGC	-0.135
GTTACTAA	0.163
CTCCTTGC	-0.13
ACACTGCT	-0.0274
CGAGCACC	-0.168
ATGGCCGA	-0.145
AACACGTT	0.121
CCCACTCA	-0.0112
CCCTAGCC	-0.243
CATGATCC	-0.096
CATTCGAG	-0.0194
ACTGAGGG	-0.235
AATTAGAG	0.126
GGGGCGCA	-0.287
AAACGCGT	-0.0392
ACCGATGC	-0.124
AACTTCCA	-0.0977
CTTTCGCA	-0.0413
CAGAGCGC	-0.331
ATTAGTAG	0.236
GCAACGTA	0.123
AAGTAGTC	0.0232
CGGCGGGA	-0.431
CTCTGGAA	-0.106
AGAAAAAG	-0.0915

Series 4 — technique: RNA Bind-n-Seq; molecule type: RNA; sample: in vitro; concentration: not given; baseline: input RNA pool; reading: higher = stronger binding
Target: RING finger protein unkempt homolog, zinc fingers 1-6, GST-SBP tag (UNK, Homo sapiens, UniProt Q9C0B0, residues 30-357)
Setting: RNA with constant flanks, human and mouse sites, ends assumed
Constant ends, left off below: GGGAGUUCUACAGUCCGACGAUC … CAACAGAGGAUUGAGCAUCA
Target sequence (chain): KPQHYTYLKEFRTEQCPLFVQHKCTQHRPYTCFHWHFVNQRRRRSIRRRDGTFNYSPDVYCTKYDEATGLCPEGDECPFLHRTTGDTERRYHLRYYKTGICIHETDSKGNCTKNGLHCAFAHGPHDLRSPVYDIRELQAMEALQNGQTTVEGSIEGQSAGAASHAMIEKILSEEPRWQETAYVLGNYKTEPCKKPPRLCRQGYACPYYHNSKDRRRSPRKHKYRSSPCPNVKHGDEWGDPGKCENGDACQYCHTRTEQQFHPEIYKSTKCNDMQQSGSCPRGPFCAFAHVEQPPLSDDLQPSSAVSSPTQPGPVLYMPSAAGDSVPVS
Oligonucleotide	bound/input enrichment [ratio]
CAUCUGUCUUGUCUGUCUGUCUGUCUAUCUAUCUAUCUAUCUAUCUAUCUAUCUAUCUAUCUAUCUAUCUAUCUAUCUAUCAUCUGUCUUGUCUGUCUGUCUGUCUGUCUAUCUAUCUAU	85.2
AAAGGAAAGGAAGUAGAUAACUUUGUGGACAAAUUAAAAUCUGAAGGUGAAACCAUCAUGUCCUCUAGUAUGGGCAAGCGUACUUCUGAAGCAACCAAAAUGCAUGCUCCACCCAUUAAU	0.198
AUGGUUGUGAAAGGUGUUUGGGGUCUAAAACAUGAUUUUUCCUGGCACAUAUUUCAAAGCAUAGACUUUGUUACCUGCUGCUUCUUGUCUAAUUUACAGGGAUAUUUAAUUUUGUAAGGU	0.308
CUGAUCGGGAAGCAGGAGGGGCGAAAUAUCGAAGUGAUGAACUCCUUUGAGCUGCUGUCCCACACCGUGGAAGAGAAGAUUAUCAUUGACAAAGAAUAUUAUUACACCAAGGAGGAGCAG	0.351
UAGUGUUUGCUUUGUGAACAUGUGUAUUGUAUAUAUUCUGUAUAGUUAUAUUGUACUGAAAUUAGCUUGUUUGAUAUAAGGAAAAUAUGUAUUGAGUACCUUUUUGCUAGCCUGAUUGUU	9.52
CAUGGCGCACUGGACGCCCUCACCCAACUGGGCAACUGCGCCUGGCGCGUCAACGGGCGCGUGCUGGACCUGGUGCUGCAGCUCUUCCAGGCCAAGGGCUGCCCCCAGCUAGGCGUGCCG	0.0996
AAUAGUAGUACAGCUAUUGGAAUCAGAUGCAAAGAUGGUGUUGUCUUUGGGGUAGAAAAAUUAGUCCUUUCUAAACUUUAUGAAGAAGGUUCCAACAAAAGACUUUUUAAUGUUGAUCGG	0.533
UGUCUUUAUUUGACGAAAACGAGCUGUUGCGCAGCCAUUGGUACCUGUAUUGGGGAAACAUAGCAUACAAGCAAGAAGCUUACAGCCUCAGUGGCGAAAAUUUUUUCAUGUCAGAGACCG	0.216

Series 5 — target: CCNB1, cyclin fold, Cln2 fusion (human); technique: yeast growth competition, sequencing; sample: yeast; setting: weak parent motif; baseline: not given; reading: higher = stronger binding
Starting sequence: RRM2 docking peptide (human); SKTARRIFQEPTE
Substitution	normalised enrichment score
Q9A	0.465
T12A	0.266
E13A	0.0911
K2A	0.303
S1A	0.134
I7A	0.315

For quick reference, copied from above (series 1):
Oligonucleotide	RBNS enrichment (R)
AAGAAGCCUUAAAUGAGAGCUAAUCCAAUCUAGAGAGCGAUGGUGUCAGCAUUUCGGUCUGCAUAUCUGUGUGUCCGUAUCUGCGUUUGUGUGCGUGUACGUGUGCCCCU	0.74
AGCCAAGUGAGGUCCCUGGAGGUUCAGGGCUUGGUGACGAGGUAGGCCGUGAUCACAUAUUCUACAGUCCAAAAGAGGGCCCGGAGCUCAGCAAUUACUCACGCCGUCAC	0.44
AACUGAAAUCUGAAGCUUUUUAUCGCUUAUUUUUCCUCGCCCUGUCUCCUCCCUUCCACCUUUCUCCUUGCAUUGUGAUGAUCUAGUAGGCACGUCUGUCAACAGGACAC	1.62
UCUCUAUUCUGUUAAUUUAAUUUUAAAUGCUUUAUCCAUUUGUGCAAAGGUAAACACAGAUUGUAUCUUUUUUAAUGGUACGGCAUAAAAAAAUAACCCUAAAGUGAAGU	0.812
AUAUGCAGCAAGCAAGGGUGACCUCCAGUGGCCCACUCAAGUCCAUGAGCCAUUAUCUAGGAUACUUUCUCUCUCUUUCAUGCAGUUCAAAGCCCAGGUAUCUCUCAGAU	0.296
GCCUACUGGGGGGUCCCCAAACUCAGUCCUGGUACCACCUCAACUGUGACAAUCAGCAAAGCCUCGCCUGGGCCCUCAUCUGGGAUGAUGGGGGGAACGGACAGAUAUUC	0.318
UUGUAAAUGCUAAUUUUUUAGGACUCUAUUAGUCAGCAUAAAAUCUAUAUGAAGAAGAUGGACAUUUUAUCCUCUUAUGGUGAUGUUUUUUGGAAAUUUCCAUCAUCCUC	3.05
